Measured values from different studies.
Parts stem from different laboratories: compare values within a part only. Substitutions count along the parent as printed.

Sample 1
Target: ABI1, truncated, D143A, DHFR fusion (Arabidopsis thaliana, UniProt P49597)
Technique: DHFR PCA, dose-response
Matrix: yeast
Notes: Hill fit, not affinity, not high confidence
Added: (+)-ABA, dose series
Reading: lower = more sensitive
Endpoint: ABA EC50
Starting sequence: PYL1, truncated, DHFR fusion (Arabidopsis thaliana, UniProt Q8VZS8); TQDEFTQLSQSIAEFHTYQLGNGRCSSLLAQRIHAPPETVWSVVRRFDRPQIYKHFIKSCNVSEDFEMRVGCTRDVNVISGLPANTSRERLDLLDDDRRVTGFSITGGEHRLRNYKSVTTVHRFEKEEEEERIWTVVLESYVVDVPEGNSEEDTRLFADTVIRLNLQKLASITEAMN
S140F: 1690 µM
L91G: 354 µM
R163F: 86.2 µM
V161P: 4.03 µM
F56I: 995 µM
K54M: 32.6 µM
N165P: 421 µM
T135Q: 1.9 µM
Y141T: 37.8 µM
R49P: 110 µM
Y141E: 122 µM
W41K: 2.13 µM
W41C: 2.62 µM
R74S: 8.53 µM
L91K: 29.2 µM
D153L: 897 µM
Y115N: 898 µM
N165Y: 375 µM
I57R: 31.9 µM
S117Y: 0.727 µM
Y115I: 2.41 µM
G102F: 791 µM
R74G: 0.225 µM
W41P: 1140 µM
P83V: 1180 µM

Sample 2
Target: CCNA1, cyclin fold, Cln2 fusion (human)
Technique: yeast growth competition, sequencing
Matrix: yeast
Notes: weak parent motif
Relative to: not given
Reading: higher = stronger binding
Endpoint: normalised enrichment score
Starting sequence: CDKN1B docking peptide (human); PSACRNLFGPVDH; partner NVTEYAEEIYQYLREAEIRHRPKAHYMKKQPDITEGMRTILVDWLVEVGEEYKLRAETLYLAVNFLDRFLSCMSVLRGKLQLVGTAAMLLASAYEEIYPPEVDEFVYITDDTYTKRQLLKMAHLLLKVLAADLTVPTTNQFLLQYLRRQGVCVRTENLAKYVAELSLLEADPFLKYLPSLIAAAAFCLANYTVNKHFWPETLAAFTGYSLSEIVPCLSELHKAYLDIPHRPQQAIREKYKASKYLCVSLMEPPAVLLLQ
S2T: 0.457
A3S: 0.195
C4K: 0.234
S2P: 0.314
H13F: 0.446
C4L: 0.115
N6R: 0.19
P1E: 0.184
R5E: 0.4
G9V: 0.373
F8G: 0.155
S2E: 0.256
P10I: 0.164
R5L: 0.284
R5N: 0.227
V11I: 0.472
V11W: 0.557
G9H: 0.327
S2G: 0.392
D12Q: 0.496
P1A: 0.52
N6L: 0.447
D12K: 0.367
F8I: 0.349
P10E: 0.556

Sample 3
Target: Histone acetyltransferase KAT6A, both winged helices, GST fusion (KAT6A, Homo sapiens, UniProt Q92794, residues 1-181)
Technique: protein binding microarray
Form: double-stranded DNA, one strand shown
Matrix: in vitro
Tested at: not given
Notes: 8-mer, flanks averaged, mean of 2 arrays, mostly near background
Relative to: not given
Reading: higher = stronger binding
Endpoint: E-score
Construct (chain): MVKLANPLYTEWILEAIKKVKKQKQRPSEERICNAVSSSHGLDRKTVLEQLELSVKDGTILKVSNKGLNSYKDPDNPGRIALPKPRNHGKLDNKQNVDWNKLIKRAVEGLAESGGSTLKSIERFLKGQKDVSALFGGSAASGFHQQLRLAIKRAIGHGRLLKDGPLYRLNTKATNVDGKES
ACGACTAG: -0.0131
TCTTAGCA: -0.129
AGTGCACA: -0.137
ACAGAATA: -0.00775
CCAGGTCA: -0.227
CCAAAACC: -0.0261
GCTATAAC: -0.0488
CGATCTAA: -0.155
CAAAACTA: -0.143
ACATCTAA: -0.155
CTCGGAAG: 0.0634
TATCCCCA: -0.259
AACCTGTC: -0.0446
CAACTACG: 0.00444
CGCGCGAA: 0.35
CCACCTTA: -0.249
CAATTCCA: -0.191
TCTATGCA: -0.161
CATGACCC: 0.00208
CCTTTCGC: 0.134
AGTGTCTA: -0.0318
GTACTAAC: 0.0444
CACGAGCA: -0.0963
AGCTCCAG: -0.167
CCAATGAA: -0.119

Sample 4
Target: Interferon regulatory factor 7, full length, phosphomimetic (IRF7, Homo sapiens, UniProt Q92985, residues 1-503, S471D/S472D/S475D/S476D/S477D/S483D/S484D/S487D)
Sequence of UniProt Q92985 (whole entry, unmodified, looked up): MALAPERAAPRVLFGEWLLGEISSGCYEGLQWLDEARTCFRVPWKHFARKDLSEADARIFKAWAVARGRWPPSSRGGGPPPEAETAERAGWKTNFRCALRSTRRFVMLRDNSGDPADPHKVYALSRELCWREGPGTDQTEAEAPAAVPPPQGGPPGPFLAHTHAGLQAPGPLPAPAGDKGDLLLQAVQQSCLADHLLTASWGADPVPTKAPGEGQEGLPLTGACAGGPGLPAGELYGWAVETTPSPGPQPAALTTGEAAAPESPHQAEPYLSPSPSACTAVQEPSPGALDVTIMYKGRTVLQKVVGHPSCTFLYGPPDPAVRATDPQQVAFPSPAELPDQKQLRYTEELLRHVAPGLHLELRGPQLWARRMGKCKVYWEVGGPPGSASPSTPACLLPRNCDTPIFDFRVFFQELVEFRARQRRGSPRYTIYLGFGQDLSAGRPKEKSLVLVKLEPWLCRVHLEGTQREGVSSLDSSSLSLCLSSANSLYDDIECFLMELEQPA
Technique: protein-binding microarray
Form: double-stranded DNA, one strand shown
Matrix: in vitro
Tested at: 2200 nM top
Notes: 60-bp whole probe
Added: salmon DNA 0.4 mg/ml
Relative to: random background probes
Reading: higher = stronger binding
Endpoint: fitted relative affinity
All sequences stand within: GCCTAGCAC … GTCTTGATTCGCTTGACGCTGCTG
TGGGTAATGCTTCTGTATTCGTGCTAG: 0.613 z-score
GACGGTATCCGTTTCGGGACGTGCTAG: 2 z-score
TTATGACTGCTTTTCCTTTAGTGCTAG: 2.11 z-score
GACGATTTCAGTTTCGATACGTGCTAG: 7.3 z-score
GACGAACTGGGGTATCTAGACGTGCTA: 0.0158 z-score
TGTGCATGTGTGTTTTCTGCGTGCTAG: 1.27 z-score
TTAGGTTTCGGTTCCGCTTAGTGCTAG: 11.1 z-score
TTAGGTTTCCCACTGCTTTAGTGCTAG: 1.54 z-score
TCAGTTTTGCTAAGTCAAACTGTGCTA: 1.34 z-score
GACGGACTGGGGTATCAGGACGTGCTA: -1.01 z-score
GACGAACTGATTTTCGAGACGTGCTAG: 2.56 z-score
TCATTATTTTTTTTATTACTGTGCTAG: 0.94 z-score
TTAGAACTGACTTTCGATTAGTGCTAG: 4.77 z-score
TCACTTCTGCTTCCTCAGACTGTGCTA: 2.67 z-score
GTCGATATCAGTTTCGAGACGTGCTAG: 3.88 z-score
GACTATATCAGTATCGAGACGTGCTAG: 0.249 z-score
GACGATATCAGACTGGATACGTGCTAG: -0.0089 z-score
GTAGATTTCAGTCTCGATTAGTGCTAG: 0.847 z-score
CCCTGGCTCCCTATAAAAGGGTGCTAG: -1.11 z-score
GACGGTATTGGACTGGGGACGTGCTAG: -0.381 z-score
TTGGATTTCAGTATCGATTAGTGCTAG: 1.25 z-score

Sample 5
Target: Sal-like protein 4, full length isoform B (SALL4, Homo sapiens, UniProt Q9UJQ4-2, residues 1-616)
Technique: universal PBM
Form: double-stranded DNA, one strand shown
Matrix: in vitro
Tested at: not given
Notes: 8-mer, flanks averaged, mean of replicates
Reading: higher = stronger binding
Endpoint: E-score
Construct (chain): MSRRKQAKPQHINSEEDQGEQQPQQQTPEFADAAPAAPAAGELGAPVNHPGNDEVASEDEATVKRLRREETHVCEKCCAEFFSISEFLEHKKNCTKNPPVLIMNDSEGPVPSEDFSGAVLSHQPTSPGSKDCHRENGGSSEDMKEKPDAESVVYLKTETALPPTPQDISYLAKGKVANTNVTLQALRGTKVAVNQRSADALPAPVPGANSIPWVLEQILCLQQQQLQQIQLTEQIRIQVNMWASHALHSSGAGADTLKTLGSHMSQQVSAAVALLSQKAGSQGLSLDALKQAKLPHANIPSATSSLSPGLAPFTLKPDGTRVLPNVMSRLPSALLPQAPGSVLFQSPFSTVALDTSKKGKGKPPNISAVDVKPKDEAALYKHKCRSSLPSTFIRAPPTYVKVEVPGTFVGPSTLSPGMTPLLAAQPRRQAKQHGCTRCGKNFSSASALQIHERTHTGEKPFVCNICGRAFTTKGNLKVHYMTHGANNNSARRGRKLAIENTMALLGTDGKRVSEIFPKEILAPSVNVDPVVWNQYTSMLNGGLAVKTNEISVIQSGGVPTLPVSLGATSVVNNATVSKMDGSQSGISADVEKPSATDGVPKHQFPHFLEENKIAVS
ACCGAGCT: -0.144
ACACCGGT: -0.254
AGACGCAG: -0.0887
AGAGATAC: -0.0184
TACGTCAA: 0.0702
CCCGCTCA: -0.346
ACAATATG: 0.324
CGGATTTA: -0.0433
ACAGGTAT: 0.123
GTTATGCA: 0.165
AATAAAAC: 0.302
ATTAACAA: 0.317
CCGCAACG: -0.13
ATTTAAAA: 0.301
CTCTGGCA: -0.249
GGAAACAC: -0.0917
CACGCAAA: -0.00649
GGCCCTAA: -0.13
CTGTCAAA: 0.0059
CGCTGCCG: -0.343
CCGGTAGG: -0.301
GGGTGACC: -0.237
ACAACAGC: -0.0242
ACCTCTGG: -0.0835

For quick reference, copied from above (sample 2):
V11W: 0.557
G9H: 0.327
S2G: 0.392
D12Q: 0.496
P1A: 0.52
N6L: 0.447
D12K: 0.367
F8I: 0.349
P10E: 0.556
